Published values gathered from unrelated publications.
A part holds a random share of what one study measured.

Series 1
Target: Interferon regulatory factor 3, full length, phosphomimetic (IRF3, Homo sapiens, UniProt Q14653, residues 1-427, S386D/S396D/S398D/S402D/T404D/S405D)
Method: protein-binding microarray
Molecule type: double-stranded DNA, one strand shown
Sample: in vitro
Tested at: 2540 nM top
Notes: 60-bp whole probe
Added: salmon DNA 0.4 mg/ml
Reference: random background probes
Direction: higher = stronger binding
Measurement: fitted relative affinity
Shared flanks, not repeated: GCCTAGCAC … GTCTTGATTCGCTTGACGCTGCTG
Target sequence (chain): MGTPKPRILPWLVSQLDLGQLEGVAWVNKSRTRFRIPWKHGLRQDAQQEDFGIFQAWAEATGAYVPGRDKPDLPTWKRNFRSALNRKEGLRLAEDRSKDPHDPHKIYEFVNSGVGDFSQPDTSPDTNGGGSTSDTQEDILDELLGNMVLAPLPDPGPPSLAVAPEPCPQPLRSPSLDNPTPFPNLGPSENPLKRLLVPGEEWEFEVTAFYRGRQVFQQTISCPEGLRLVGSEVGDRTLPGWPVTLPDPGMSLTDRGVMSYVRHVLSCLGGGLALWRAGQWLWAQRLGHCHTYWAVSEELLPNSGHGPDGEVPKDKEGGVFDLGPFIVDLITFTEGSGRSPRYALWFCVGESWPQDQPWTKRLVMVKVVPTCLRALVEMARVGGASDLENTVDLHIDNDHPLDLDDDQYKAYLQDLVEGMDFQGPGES
Oligonucleotide = TTAGATTTCAGACTCGATTAGTGCTAG; value = 1.57 z-score
Oligonucleotide = TCATGTTTGGTGTCTTTTACTGTGCTA; value = 0.133 z-score
Oligonucleotide = TCATCTCTCCATGTGTTACTGTGCTAG; value = 1.15 z-score
Oligonucleotide = TCAGGTCTCCTACTGCTTTAGTGCTAG; value = 1.46 z-score
Oligonucleotide = TTAGGACTGAGTATCGGTTAGTGCTAG; value = 0.821 z-score
Oligonucleotide = GACGGTATCCTTTTCCTGAGGTGCTAG; value = 7.34 z-score
Oligonucleotide = GACGGACTGGGGACTGGGCACGTGCTA; value = -1.09 z-score
Oligonucleotide = TCATTTTCATTTTTTTTACTGTGCTAG; value = 3.52 z-score
Oligonucleotide = GTCGATTTCGGGACTGGAGACGTGCTA; value = 2.97 z-score

Series 2
Target: Histone acetyltransferase KAT6A, winged helix 2, GST fusion (KAT6A, Homo sapiens, UniProt Q92794, residues 85-181)
Method: protein binding microarray
Molecule type: double-stranded DNA, one strand shown
Sample: in vitro
Tested at: not given
Notes: 8-mer, flanks averaged, mean of 2 arrays, mostly near background
Reference: not given
Direction: higher = stronger binding
Measurement: E-score
Construct (chain): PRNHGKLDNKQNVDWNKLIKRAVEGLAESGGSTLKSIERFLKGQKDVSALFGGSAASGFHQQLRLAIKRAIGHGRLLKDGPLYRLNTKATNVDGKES
Oligonucleotide = CACTTAGA; value = 0.058
Oligonucleotide = CGGGCTTC; value = 0.117
Oligonucleotide = ACGCACCA; value = 0.206
Oligonucleotide = CTCATCGC; value = 0.0484
Oligonucleotide = CTTAATCC; value = -0.2
Oligonucleotide = ATGATTCG; value = 0.00797
Oligonucleotide = AGACCGAA; value = 0.0894
Oligonucleotide = AGCAGAAT; value = 0.152
Oligonucleotide = AACAGTTG; value = -0.265
Oligonucleotide = GATGTGCC; value = -0.023

Series 3
Target: RNA binding protein fox-1 homolog 2, RRM domain, GST-SBP tag (RBFOX2, Homo sapiens, UniProt O43251-10, residues 100-194)
Method: RNA Bind-n-Seq
Molecule type: RNA
Sample: in vitro
Tested at: 365 nM
Notes: natural RNA segment, single round, ends assumed
Reference: no-protein control
Direction: higher = stronger binding
Measurement: RBNS enrichment (R)
Shared flanks, not repeated: GGGAGUUCUACAGUCCGACGAUC … UGGAAUUCUCGGGUGCCAA
Construct (chain): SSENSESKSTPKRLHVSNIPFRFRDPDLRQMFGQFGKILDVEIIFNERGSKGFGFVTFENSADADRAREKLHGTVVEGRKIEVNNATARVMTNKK
Oligonucleotide = UUGAAAAAGCAACCCAGUCAGCUGACUUCCUCGUGCAAUGUGUUAAACUGUGAACUCUGCCCAUGUGUCAGGAGUGGCUGUCUCUGGUCUCUUCCUUUAGCUGACAAGGA; value = 0.622
Oligonucleotide = UCAAUCUCUACUAGGUUAUAAGUAGUAUACACAGAUUUACCCUGCCCUUGAACUUGAAGGACAUUAAAUUAUUAAUGAUCAUUUGGUAACAUGUUUACCUGAUUAUCUUC; value = 0.328
Oligonucleotide = GGUUUUAUUUUACUGAUUUUAAAAGGUAUAUAGAAAAAUGUAGGCCUUUAAAAAGAAACAGCAUGUAGUUUUUUAUUUUAAUAUGUUCCAUAGAGUGGAUAGGCAGACAG; value = 60.8
Oligonucleotide = CACCCAAGGCUUCUAGAAGGAGCUUCCUGCAAUGGAAGGAAGGAGAAGCUCUGAAGCCCAUGUAUGGCAUGGAUUGUGGAAGACUGGGCAACAUAUUUAAGAUUUCCAGC; value = 0.658
Oligonucleotide = CAAAACACACAGAUAUUAUUAGAGAGACUUUACUUUCUAGUGCUGGAAUAACCAUGGAGCAAAGAGAACAGAAUCCCAUUCCAAGAGUCCCUCUCUCUCCAACAUCUUGA; value = 0.432
Oligonucleotide = CAGGGGGGCUGACUGCCUAGUGGCUCAACCUCCUGAACCCACCCACUCCCAGCGAUGCUACCCAGAACCCCAACGGCAUGAAUCCUGCACAGUGCCGGGCAGUGCCAGAC; value = 0.337
Oligonucleotide = AAUUAAUUUAGCUGCAACCUUUUUAGGUAUUAAAUUACAUGACAAACAGUUAAAAUGAAUUUAAGAAUAAACAUAAGGCAUCGUUUUCAAUGAACAGUAAUAAUUUCCCA; value = 0.569
Oligonucleotide = GUAAUGACCAGUGGAUUUUUGUUUGGCUUUAUUAAUCUCAUCACAGUGUAUUCUGAUGUCUUAAGUGGUCAGAAAAGAGCACUAAGAAAUGGAUCUAUAUAACCAAUGAG; value = 0.337
Oligonucleotide = GACAUGGGGAGGACAAAGAGAGCUCAAGAGGAAUGCUUUGUGAGAAGUGGAUUCUCUCCGUGUCCCUGCCCCCCACCCAAACUUGAACUAUACCUAUUACAUUUCCAGGC; value = 0.851

Other studies, line by line
Molecule = PhoQ, residues 284 288 289 292 302 303 TGYLSA; target = PhoP, residues 12 14 15 18 19 GHCSL (Escherichia coli, UniProt P23836); test = Sort-seq, measured: YFP reporter; system = E. coli; conditions = PhoQ-PhoP variant library, added: 10 µM Mg2+; scale = reference: high Mg2+ state, higher = stronger signaling; measurement = fold induction; value = 19.2

Repeated from above (series 1):
Oligonucleotide = TTAGGACTGAGTATCGGTTAGTGCTAG; value = 0.821 z-score
Oligonucleotide = GACGGACTGGGGACTGGGCACGTGCTA; value = -1.09 z-score
Oligonucleotide = TCATTTTCATTTTTTTTACTGTGCTAG; value = 3.52 z-score
Oligonucleotide = TTAGATTTCAGACTCGATTAGTGCTAG; value = 1.57 z-score
